Assay results collected from several papers.
A part holds a random share of what one study measured. Changes are numbered by the printed parent chain.

Sample 1
Target: CRIPT, C-terminal peptide
Technique: DHFR complementation, deep sequencing
Matrix: yeast
Setting: single substitutions, model-inferred values
Relative to: wild type
Direction: higher = weaker binding
Parent: ERBIN, PDZ domain 1 (human); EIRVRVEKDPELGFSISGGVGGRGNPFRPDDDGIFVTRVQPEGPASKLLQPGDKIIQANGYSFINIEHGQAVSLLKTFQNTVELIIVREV; partner TKNYKQTSV
| Substitution | binding free energy change |
| --- | --- |
| E89W | 0.00801 kcal/mol |
| V82A | 0.0777 kcal/mol |
| L84Q | 0.0657 kcal/mol |
| E42L | 0.0896 kcal/mol |
| T37F | 0.589 kcal/mol |
| L49K | 0.743 kcal/mol |
| E89N | 0.00665 kcal/mol |
| K76N | 0.719 kcal/mol |

Sample 2
Target: TAR DNA-binding protein 43, full length, His tag (TARDBP, Homo sapiens, UniProt Q13148, residues 1-414)
Technique: RNA Bind-n-Seq
Form: RNA
Matrix: in vitro
Concentration: 20 nM
Setting: 6-mer, flanks averaged, single round
Together with: 150 mM KCl
Relative to: input library
Direction: higher = stronger binding
| Oligonucleotide | 6-mer enrichment (R) |
| --- | --- |
| CCAAGU | 0.685 |
| CCCCUU | 0.696 |
| AGGUGA | 1.41 |
| UCCAGU | 0.652 |
| UCCGCC | 0.615 |
| UUGAAG | 0.85 |
| ACCUAA | 0.612 |
| GAGCGU | 1.33 |

Other studies, line by line
P1: viral docking peptide; CKVKRKLFGSENI; partner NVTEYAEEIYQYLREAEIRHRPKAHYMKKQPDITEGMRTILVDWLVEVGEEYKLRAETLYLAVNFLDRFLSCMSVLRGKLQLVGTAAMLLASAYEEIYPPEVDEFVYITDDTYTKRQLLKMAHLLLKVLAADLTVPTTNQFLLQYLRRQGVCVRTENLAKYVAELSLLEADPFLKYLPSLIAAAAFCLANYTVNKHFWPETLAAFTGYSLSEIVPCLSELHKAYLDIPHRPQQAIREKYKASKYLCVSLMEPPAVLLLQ
P2: PafA, mature enzyme, eGFP fusion (Elizabethkingia meningoseptica, UniProt Q9KJX5); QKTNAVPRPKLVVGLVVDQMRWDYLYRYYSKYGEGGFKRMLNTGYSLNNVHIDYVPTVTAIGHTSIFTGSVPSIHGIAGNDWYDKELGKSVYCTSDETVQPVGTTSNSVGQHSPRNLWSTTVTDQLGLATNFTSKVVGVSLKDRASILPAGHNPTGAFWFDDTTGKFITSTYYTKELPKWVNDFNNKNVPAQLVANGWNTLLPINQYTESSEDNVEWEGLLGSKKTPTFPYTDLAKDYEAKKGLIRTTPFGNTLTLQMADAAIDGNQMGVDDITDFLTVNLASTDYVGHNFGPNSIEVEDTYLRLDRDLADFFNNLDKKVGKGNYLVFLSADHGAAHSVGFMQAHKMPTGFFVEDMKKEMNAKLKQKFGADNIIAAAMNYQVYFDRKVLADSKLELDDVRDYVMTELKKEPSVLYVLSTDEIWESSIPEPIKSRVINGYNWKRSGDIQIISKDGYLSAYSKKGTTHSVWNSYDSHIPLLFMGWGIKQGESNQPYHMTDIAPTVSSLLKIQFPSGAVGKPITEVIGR
| Substitution | target | assay | system | setting | scale | quantity | result |
| --- | --- | --- | --- | --- | --- | --- | --- |
| P1 F8L | CCNA1, cyclin fold, Cln2 fusion (human) | yeast growth competition, sequencing | yeast | weak parent motif | relative to: not given, higher = stronger binding | normalised enrichment score | 0.306 |
| P2 G265V | vanadate, free oxyanion | microfluidic competitive inhibition | in vitro, cell-free expressed | not given, derived from inhibition constants, unchanged parent 676 nM | lower = stronger binding | oxyanion analog dissociation constant | 741 nM |

For quick reference, copied from above (sample 1):
| Substitution | binding free energy change |
| --- | --- |
| T37F | 0.589 kcal/mol |
| E89N | 0.00665 kcal/mol |
